Experimental data pooled from the literature.
Numbered parts are unrelated; each lists some results of a single study.

Series 1 — method: RNA Bind-n-Seq; form: RNA; medium: in vitro; tested at: 1 µM; notes: whole 134-nt RNA, ends assumed; with: 150 mM KCl; reference: input library; reading: higher = stronger binding
Target: Ras GTPase-activating protein-binding protein 1, C-terminal RGG region (G3BP1, Homo sapiens, UniProt Q13283)
Sequence of UniProt Q13283 (whole entry, looked up): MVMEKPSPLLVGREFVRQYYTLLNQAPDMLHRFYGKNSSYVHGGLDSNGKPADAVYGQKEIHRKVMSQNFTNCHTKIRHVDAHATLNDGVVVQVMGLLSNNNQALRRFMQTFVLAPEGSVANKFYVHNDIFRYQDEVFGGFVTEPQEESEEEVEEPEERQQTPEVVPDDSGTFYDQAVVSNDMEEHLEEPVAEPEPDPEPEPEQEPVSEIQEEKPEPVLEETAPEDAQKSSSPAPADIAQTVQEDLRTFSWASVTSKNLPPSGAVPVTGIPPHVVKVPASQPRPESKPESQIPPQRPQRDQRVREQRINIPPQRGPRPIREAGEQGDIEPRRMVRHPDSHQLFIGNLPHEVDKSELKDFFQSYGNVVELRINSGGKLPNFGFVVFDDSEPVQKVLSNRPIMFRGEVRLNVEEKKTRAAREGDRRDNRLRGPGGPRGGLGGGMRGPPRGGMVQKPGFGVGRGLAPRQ
Constant ends, left off below: GGGAGUUCUACAGUCCGACGAUC … UGGAAUUCUCGGGUGUCAAGG
Strand | log2 enrichment
UGGACUGCCUAUGGAAGAAGAAGUUCAAGAAGGAGCACGAGGAGUUUGAGACCAUGGAGAACGUGAACCGCCUUCUUCUGGAGAACGUCC | -1.1
UUAGAAGAAUUUGGAAGGCCUUAAAUAUAGUAGCUUAGUUUGAAAAAUGUGAAGGACUUUCGUAACGGAAGUAAUUCAAGAUCAAGAGUA | -2.85
UCCUGUGCUACACAUCGUAUGUACCGAAUCGGGGUUUUUGGGGUUUUUGGGUUUUUGGGGAAAGUAUUAUGUUACGCCGUUCGGAUCUGC | 0.441
UAACUUUAGAGGAGGAUCUGAUGGAUAUGGCAGUGGACGUGGAUUUGGGGAUGGCUAUAAUGGGUAUGGAGGAGGGCCUGGAGGUGGCAA | 0.29
UAACUUUAGAGGAGGAGCUGAUGGAUAUGGCAGUGGACGUGGAUUUGGGGAUGGCUAUAAUGGGUAUGGAGGAGGACCUGGAGGUGGCAA | -0.714
UGGGAGGUGAAUUUUGUUUAUUUUUUUAGCUCAUUUCCAGGGGUGGGAAUUUUUUUUUAAUAUGUGUCAUGAAUAAAGUUGUUUUUGAAA | 2.77
CAAGUCCUGUGCUACACAUCGUAUGUACCGAAUCGGGAGGGAAAAAGGGAAAGGGAAAGUAUUAUGUUACGCCGUUCGGAUCUGCACUUC | 1.56
CCUGUGCUACACAUCGUAUGUACCGAAUCGGGGAAAAAAGGGGAAAAAAGGGAAAAAAGGAAAGUAUUAUGUUACGCCGUUCGGAUCUGC | -1.77

Series 2 — action: inhibitor; tested at: 20 µM
Target: Replicase polyprotein 1ab, nsp13 helicase (rep, Severe acute respiratory syndrome coronavirus 2, UniProt P0DTD1)
SMILES | inhibition
CCCCNC(=O)NS(=O)(=O)c1ccc(C)cc1 | -2.75%
CN1CCC(Nc2ncc3ncnc(Nc4ccc(F)c(Cl)c4)c3n2)CC1 | 8.51%
CNC(=O)Nc1ccc(-c2nc(N3CC4CCC(C3)O4)c3cnn(C4CCC5(CC4)OCCO5)c3n2)cc1 | 0.9%
O=C(O)c1cc(-c2ccc(F)cc2F)ccc1O | 9.96%
Oc1cccc(Nc2ccc(Nc3cccc(O)c3)nn2)c1 | 5.83%
O=C1c2ccccc2C(=O)C1c1ccc(Cl)cc1 | 4.96%
NC(=O)c1cn([C@@H]2O[C@H](CO)[C@@H](O)[C@H]2O)c2ncnc(N)c2c1=O | 0.18%
COc1ccccc1OCC(O)CO (stereo not shown) | 1.07%
C[S+]([O-])CCCCN=C=S (stereo not shown) | 9.05%
CN(C)CCCOc1nn(Cc2ccccc2)c2ccccc12 | -1.61%
COc1ccc(CCO[C@@H]2CCCC[C@H]2N2CC[C@@H](O)C2)cc1OC | 5.24%
COc1ccccc1C1(O)CCN(CCCn2c3ccccc3c3ccccc32)CC1 | 11.2%
C[C@]12CCC(=O)C=C1[C@@H]1C[C@@H]1[C@H]1[C@@H]3[C@@H]4C[C@@H]4[C@@]4(CCC(=O)O4)[C@@]3(C)CC[C@@H]12 | 1.06%
O=C(Nc1c(-c2cccs2)nc2ccccn12)c1ccc(Cl)cc1 | 1.7%
CCN1CCN(c2cc(-c3ccc(F)cc3)c3c(n2)CCCCCC3)CC1 | 2.46%
CN[C@H]1C(=O)N[C@@H]2Cc3ccc(cc3)Oc3cc4cc(c3O[C@@H]3O[C@H](C(=O)O)[C@@H](O)[C@H](O)[C@H]3NC(=O)CCCCCCCCC(C)C)Oc3ccc(cc3Cl)[C@@H](O)[C@@H]3NC(=O)[C@H](NC(=O)[C@@H]4NC(=O)[C@@H](NC2=O)c2cc(cc(O)c2Cl)Oc2cc1ccc2O)c1ccc(O)c(c1)-c1c(O[C@H]2O[C@H](CO)[C@@H](O)[C@H](O)[C@@H]2O)cc(O)cc1[C@@H](C(=O)NCCCN(C)C)NC3=O | 19%
NC(=O)c1nnn(Cc2cc(Cl)c(C(=O)c3ccc(Cl)cc3)c(Cl)c2)c1N | 0.58%
CC(C)C(=O)Oc1ccc(CO)cc1[C@H](CCN(C(C)C)C(C)C)c1ccccc1 | 2.32%
Cc1c(C(=O)Nc2ccc(N3C[C@@H](C)O[C@@H](C)C3)nc2)cccc1-c1ccc(OC(F)(F)F)cc1 | 4%
C[C@@]12CCc3occc3[C@H]1CC[C@@]13C[C@@H](CC[C@H]12)[C@@](O)(CO)C3 | -2.33%
CC(C)(C)C(=O)C(=Nc1ccc(Cl)cc1)NNc1ccc(Cl)cc1 | -6.19%
CCC(C)(CN(C)C)OC(=O)c1ccccc1 (stereo not shown) | 1.63%
CCOc1nc2cccc(C(=O)OCc3oc(=O)oc3C)c2n1Cc1ccc(-c2ccccc2-c2noc(=O)[nH]2)cc1 | 3.68%
CC(C)c1ccc(C(=O)c2cccs2)c(SCCCCCCCCN(C)C)n1 | 8.14%
CCCCc1nc2cc(/C=C/C(=O)NO)ccc2n1CCN(CC)CC | -1.31%

Series 3 — method: protein-binding microarray; form: double-stranded DNA, one strand shown; medium: in vitro; tested at: 2200 nM top; notes: 60-bp whole probe; with: salmon DNA 0.4 mg/ml; reference: random background probes; reading: higher = stronger binding; constant ends, left off below: GCCTAGCAC … GTCTTGATTCGCTTGACGCTGCTG
Target: Interferon regulatory factor 7, full length, phosphomimetic (IRF7, Homo sapiens, UniProt Q92985, residues 1-503, S471D/S472D/S475D/S476D/S477D/S483D/S484D/S487D)
Target sequence (chain): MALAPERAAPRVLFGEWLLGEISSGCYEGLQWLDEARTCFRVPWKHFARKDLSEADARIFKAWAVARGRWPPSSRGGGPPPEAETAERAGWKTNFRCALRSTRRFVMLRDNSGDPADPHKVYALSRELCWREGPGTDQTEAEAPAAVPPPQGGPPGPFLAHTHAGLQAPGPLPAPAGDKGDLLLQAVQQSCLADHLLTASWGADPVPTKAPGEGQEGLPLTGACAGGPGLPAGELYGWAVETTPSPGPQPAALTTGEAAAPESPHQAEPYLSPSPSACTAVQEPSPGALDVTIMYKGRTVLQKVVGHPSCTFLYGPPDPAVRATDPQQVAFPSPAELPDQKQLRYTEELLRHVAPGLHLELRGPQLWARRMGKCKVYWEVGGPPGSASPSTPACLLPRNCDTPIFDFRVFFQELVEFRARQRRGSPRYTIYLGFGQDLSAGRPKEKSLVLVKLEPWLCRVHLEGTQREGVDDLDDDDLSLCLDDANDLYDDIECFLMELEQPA
Strand | fitted relative affinity
CCAGACTGCAGAGCAAGATCGTGCTAG | -0.528 z-score
GACGTTTTCAGTTCCGAGACGTGCTAG | 3.51 z-score
TTAGGACTGCGTCTCCTTTAGTGCTAG | 0.334 z-score
GACGATTTCGGAACTGGAGACGTGCTA | 1.7 z-score
GACGATTTCACTCTCGAGACGTGCTAG | 1.51 z-score
TCACCTTTGCCTCTGAGACTGTGCTAG | 1.58 z-score
AAACCTATAGGGCCTGACTTCGTGCTA | -0.397 z-score
GACGGTTTCCTTTCCATGACGTGCTAG | 3.78 z-score

Series 4 — cell line: HEK-293T; read-out: pseudovirus infection; organism: VSV pseudotyped with SARS-CoV-2 spike; tested at: 10 µM; time: 16 h; reference: vehicle-treated
Compound | GFP-positive cells
C=C(c1ccc(C(=O)O)cc1)c1cc2c(cc1C)C(C)(C)CCC2(C)C | 43.8%
CCCCCCC(=O)O[C@H]1CC[C@H]2[C@@H]3CCC4=CC(=O)CC[C@]4(C)[C@H]3CC[C@]12C | 100%
CO[C@@]1(NC(=O)Cc2cccs2)C(=O)N2C(C(=O)O)=C(COC(N)=O)CS[C@@H]21 | 78.4%

Series 5 — method: competition protein-binding microarray; form: double-stranded DNA, one strand shown; medium: in vitro; tested at: 2 µM; with: Pho4 competitor, 0.05 µM; reading: higher = stronger binding; constant ends, left off below: … GTCTTGATTCGCTTGACGCTGCTG
Target: Centromere-binding protein 1, full length, His-tagged (CBF1, Saccharomyces cerevisiae, UniProt P17106, residues 1-351)
Sequence of UniProt P17106 (whole entry, looked up): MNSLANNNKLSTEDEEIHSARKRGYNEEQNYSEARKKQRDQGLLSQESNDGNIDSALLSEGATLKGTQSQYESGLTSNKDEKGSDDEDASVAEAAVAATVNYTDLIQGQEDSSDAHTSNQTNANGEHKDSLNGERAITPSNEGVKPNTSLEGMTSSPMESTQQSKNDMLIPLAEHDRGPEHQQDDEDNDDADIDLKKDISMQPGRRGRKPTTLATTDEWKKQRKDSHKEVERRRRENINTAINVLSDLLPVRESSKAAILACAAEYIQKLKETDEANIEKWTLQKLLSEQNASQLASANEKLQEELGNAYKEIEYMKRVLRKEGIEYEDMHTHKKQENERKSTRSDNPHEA
Notes: whole 60-bp probe, lowest competitor level
Strand | fluorescence intensity [a.u.]
CATACCCAACCTTGATTAGTGGGTGAAGATATTTGT | 79.4
CGGAGAACAAAAGTAGGCGTGGGTAGTGAAGATCTT | 59.8
ACCTCAAGTGATGGGTACGTGGGTAGTCAGGCTTCC | 61.6
AAATTACTAAGTTGACACGTGTTTTACCCCGTATGA | 1680
CTTTCCCGATCTTGAGTTGTGGGTGTAGCACATTTG | 86.4
CTTTCCCGATCTTGCGCTGTGGGTGTAGCACATTTG | 88.2
AACAGGCTTGGATGGTACGTGCTTTCCCTTGTCGAG | 52.5
CTTTCCCGATCTTGATTCGTGGGTGTAGCACATTTG | 67

Series 6 — read-out: enzyme activity; action: inhibitor; tested at: 20 µM
Target: Replicase polyprotein 1ab, main protease (rep, Severe acute respiratory syndrome coronavirus 2, UniProt P0DTD1)
Structure (SMILES) | inhibition [%]
COc1ccc(OC)c2c(=S)c3ccccc3[nH]c12 | -11.4
[NH2][Pt]([NH2])([Cl])[Cl] | 97.7
CS/C(N)=C(C#N)/C(C#N)=C(\N)SC | -9.69

A few entries again (series 3):
Strand | fitted relative affinity
GACGGTTTCCTTTCCATGACGTGCTAG | 3.78 z-score
TTAGGACTGCGTCTCCTTTAGTGCTAG | 0.334 z-score
TCACCTTTGCCTCTGAGACTGTGCTAG | 1.58 z-score
CCAGACTGCAGAGCAAGATCGTGCTAG | -0.528 z-score
GACGATTTCGGAACTGGAGACGTGCTA | 1.7 z-score
AAACCTATAGGGCCTGACTTCGTGCTA | -0.397 z-score
GACGATTTCACTCTCGAGACGTGCTAG | 1.51 z-score
GACGTTTTCAGTTCCGAGACGTGCTAG | 3.51 z-score
